Measurements collected from several papers.
Compare with care: the assays were run in different laboratories. Several values in a cell are separate wells, animals, samples, runs or records. ± marks the error that the study gave.
CA1: Carbonic anhydrase 1 (CA1, Homo sapiens, UniProt P00915)
Sequence of UniProt P00915 (whole entry, looked up): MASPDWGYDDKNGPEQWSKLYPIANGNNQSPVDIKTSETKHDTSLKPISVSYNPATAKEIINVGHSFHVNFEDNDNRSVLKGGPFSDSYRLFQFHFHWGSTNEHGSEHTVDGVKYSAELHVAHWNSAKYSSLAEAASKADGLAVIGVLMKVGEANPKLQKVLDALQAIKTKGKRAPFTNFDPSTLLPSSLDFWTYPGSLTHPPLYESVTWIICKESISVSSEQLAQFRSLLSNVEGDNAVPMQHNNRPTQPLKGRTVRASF
KCNH2: Voltage-gated inwardly rectifying potassium channel KCNH2 (KCNH2, Homo sapiens, UniProt Q12809)
Sequence of UniProt Q12809 (whole entry, looked up): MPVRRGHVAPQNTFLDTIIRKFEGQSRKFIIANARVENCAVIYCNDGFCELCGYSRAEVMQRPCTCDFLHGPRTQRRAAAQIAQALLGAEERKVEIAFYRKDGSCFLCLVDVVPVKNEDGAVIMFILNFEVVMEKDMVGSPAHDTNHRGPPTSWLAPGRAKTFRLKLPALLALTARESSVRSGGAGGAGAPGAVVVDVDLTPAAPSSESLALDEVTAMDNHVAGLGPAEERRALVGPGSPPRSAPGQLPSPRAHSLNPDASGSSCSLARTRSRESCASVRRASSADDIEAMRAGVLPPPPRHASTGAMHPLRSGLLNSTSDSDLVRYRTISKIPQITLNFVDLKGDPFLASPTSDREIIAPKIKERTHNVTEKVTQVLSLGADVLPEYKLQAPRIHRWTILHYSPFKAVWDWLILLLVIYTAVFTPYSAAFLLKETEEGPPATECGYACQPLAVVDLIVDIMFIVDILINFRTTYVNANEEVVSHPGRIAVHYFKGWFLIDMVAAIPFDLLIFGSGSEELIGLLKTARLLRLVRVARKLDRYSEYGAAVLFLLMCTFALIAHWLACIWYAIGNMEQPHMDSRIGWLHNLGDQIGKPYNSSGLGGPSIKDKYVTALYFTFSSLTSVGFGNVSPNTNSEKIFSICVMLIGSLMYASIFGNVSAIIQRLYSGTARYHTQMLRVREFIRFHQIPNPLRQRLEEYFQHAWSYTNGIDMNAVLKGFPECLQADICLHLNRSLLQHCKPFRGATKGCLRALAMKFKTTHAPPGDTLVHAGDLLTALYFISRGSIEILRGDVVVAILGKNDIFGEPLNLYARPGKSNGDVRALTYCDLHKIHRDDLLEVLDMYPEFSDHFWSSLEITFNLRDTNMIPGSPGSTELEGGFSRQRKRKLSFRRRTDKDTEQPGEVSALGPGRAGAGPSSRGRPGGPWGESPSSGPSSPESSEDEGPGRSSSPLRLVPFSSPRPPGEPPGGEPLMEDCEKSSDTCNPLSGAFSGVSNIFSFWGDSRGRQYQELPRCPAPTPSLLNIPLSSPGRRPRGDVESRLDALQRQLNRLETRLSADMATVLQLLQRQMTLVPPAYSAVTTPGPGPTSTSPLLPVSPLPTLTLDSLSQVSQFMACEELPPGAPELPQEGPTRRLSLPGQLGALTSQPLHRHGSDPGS
TOP2A: DNA topoisomerase 2-alpha (TOP2A, Homo sapiens, UniProt P11388)
Toll-like receptor 3: Toll-like receptor 3 (Homo sapiens, UniProt O15455)
Sequence of UniProt O15455 (whole entry, looked up): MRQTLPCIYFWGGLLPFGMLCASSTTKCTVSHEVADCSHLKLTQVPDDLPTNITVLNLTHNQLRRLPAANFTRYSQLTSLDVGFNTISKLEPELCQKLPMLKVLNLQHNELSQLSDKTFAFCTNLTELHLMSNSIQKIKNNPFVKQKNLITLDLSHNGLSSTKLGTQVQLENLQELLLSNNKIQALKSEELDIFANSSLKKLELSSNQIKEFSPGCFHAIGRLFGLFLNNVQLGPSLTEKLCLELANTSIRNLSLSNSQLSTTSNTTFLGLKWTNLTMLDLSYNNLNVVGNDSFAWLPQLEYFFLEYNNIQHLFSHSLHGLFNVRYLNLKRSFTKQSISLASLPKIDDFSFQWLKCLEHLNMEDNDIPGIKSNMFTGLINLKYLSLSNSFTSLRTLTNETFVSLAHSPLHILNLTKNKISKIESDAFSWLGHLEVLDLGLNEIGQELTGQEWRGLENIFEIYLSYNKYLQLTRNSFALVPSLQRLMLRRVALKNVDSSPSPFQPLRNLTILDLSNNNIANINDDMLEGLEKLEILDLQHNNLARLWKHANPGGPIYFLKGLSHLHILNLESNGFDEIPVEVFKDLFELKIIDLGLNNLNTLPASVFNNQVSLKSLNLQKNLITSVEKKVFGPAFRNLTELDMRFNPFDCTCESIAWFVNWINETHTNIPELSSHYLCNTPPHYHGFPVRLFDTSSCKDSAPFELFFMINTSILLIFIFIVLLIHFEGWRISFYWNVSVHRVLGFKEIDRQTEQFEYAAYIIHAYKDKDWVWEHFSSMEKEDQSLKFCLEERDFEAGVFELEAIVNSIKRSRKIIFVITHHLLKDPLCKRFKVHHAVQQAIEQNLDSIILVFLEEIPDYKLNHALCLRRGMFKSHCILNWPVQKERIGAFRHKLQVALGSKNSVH
PSMB6: Proteasome subunit beta type-6 (PSMB6, Homo sapiens, UniProt P28072)
Sequence of UniProt P28072 (whole entry, looked up): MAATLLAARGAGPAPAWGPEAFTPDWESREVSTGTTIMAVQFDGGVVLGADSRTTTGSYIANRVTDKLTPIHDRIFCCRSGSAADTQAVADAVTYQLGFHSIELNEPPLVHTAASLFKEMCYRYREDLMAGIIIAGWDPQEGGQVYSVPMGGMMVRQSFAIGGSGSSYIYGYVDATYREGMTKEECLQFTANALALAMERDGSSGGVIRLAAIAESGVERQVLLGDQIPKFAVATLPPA
ABCG2: Broad substrate specificity ATP-binding cassette transporter ABCG2 (ABCG2, Homo sapiens, UniProt Q9UNQ0)
Sequence of UniProt Q9UNQ0 (whole entry, looked up): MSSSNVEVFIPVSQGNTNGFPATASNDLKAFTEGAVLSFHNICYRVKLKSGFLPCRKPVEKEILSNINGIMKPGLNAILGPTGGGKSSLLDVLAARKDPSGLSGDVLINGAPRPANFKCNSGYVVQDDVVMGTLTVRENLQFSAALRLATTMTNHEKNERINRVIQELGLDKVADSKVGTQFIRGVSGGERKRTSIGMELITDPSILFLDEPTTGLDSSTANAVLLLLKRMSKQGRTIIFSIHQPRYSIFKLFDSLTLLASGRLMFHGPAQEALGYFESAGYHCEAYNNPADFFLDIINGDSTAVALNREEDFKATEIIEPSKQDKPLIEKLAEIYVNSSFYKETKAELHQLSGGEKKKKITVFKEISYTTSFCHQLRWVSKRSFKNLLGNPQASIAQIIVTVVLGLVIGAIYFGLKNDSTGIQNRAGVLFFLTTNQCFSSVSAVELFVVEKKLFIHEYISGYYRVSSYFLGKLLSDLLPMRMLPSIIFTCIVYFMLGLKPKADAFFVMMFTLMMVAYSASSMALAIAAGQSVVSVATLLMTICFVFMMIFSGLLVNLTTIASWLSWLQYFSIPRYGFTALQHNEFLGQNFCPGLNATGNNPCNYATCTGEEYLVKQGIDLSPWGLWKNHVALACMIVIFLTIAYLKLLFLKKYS
PLA2G5: Phospholipase A2 group V (PLA2G5, Homo sapiens, UniProt P39877)
Sequence of UniProt P39877 (whole entry, looked up): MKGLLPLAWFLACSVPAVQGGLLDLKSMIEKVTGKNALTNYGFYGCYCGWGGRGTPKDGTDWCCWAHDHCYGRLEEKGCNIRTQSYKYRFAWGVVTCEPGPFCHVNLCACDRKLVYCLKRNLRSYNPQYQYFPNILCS
PDE10A: cAMP and cAMP-inhibited cGMP 3',5'-cyclic phosphodiesterase 10A (PDE10A, Homo sapiens, UniProt Q9Y233)
Sequence of UniProt Q9Y233 (whole entry, looked up): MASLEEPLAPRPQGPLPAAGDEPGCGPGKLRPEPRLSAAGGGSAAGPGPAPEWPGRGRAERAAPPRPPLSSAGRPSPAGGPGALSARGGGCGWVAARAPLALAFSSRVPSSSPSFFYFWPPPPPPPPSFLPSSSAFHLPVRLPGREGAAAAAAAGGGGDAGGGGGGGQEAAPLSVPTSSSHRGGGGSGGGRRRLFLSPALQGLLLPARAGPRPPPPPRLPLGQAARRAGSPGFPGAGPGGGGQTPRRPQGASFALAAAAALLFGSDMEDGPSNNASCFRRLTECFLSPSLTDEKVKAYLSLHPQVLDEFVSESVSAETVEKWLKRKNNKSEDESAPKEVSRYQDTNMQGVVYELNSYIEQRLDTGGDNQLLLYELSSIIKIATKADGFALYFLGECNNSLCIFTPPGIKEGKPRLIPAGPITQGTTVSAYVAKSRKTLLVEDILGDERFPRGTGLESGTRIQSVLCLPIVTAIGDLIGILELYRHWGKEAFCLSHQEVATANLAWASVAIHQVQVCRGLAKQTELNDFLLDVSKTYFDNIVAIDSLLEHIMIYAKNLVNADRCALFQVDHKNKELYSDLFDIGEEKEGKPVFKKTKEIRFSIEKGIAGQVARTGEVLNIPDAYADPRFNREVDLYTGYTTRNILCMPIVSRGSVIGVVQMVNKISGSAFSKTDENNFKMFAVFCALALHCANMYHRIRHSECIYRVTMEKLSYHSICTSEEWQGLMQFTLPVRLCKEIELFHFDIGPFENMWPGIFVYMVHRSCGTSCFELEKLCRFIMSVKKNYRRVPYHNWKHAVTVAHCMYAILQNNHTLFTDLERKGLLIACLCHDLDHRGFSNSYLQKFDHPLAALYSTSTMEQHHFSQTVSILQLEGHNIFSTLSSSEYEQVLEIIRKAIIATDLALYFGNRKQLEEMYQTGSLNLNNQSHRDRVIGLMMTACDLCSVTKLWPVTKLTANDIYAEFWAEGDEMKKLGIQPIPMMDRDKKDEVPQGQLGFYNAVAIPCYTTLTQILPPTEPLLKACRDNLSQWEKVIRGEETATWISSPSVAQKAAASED
Sequence of UniProt Q05940 (whole entry, unmodified, looked up): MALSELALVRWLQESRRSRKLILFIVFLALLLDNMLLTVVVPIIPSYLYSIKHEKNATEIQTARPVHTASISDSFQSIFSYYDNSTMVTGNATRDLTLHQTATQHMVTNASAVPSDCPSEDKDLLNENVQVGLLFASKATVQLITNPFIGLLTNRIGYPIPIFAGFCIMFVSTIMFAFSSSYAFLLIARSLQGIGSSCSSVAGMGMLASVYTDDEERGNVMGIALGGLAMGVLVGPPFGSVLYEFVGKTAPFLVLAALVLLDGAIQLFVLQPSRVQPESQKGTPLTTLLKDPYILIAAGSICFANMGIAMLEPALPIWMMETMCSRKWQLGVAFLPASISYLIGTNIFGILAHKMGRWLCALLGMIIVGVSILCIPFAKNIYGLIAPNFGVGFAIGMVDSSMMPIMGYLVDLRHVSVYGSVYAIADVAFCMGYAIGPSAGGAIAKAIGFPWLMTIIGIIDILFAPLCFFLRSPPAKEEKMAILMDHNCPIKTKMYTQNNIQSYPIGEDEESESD

Structure (SMILES) | target | assay | test system | conditions | IC50
Cc1ncc(COP(=O)(O)O)c(C=O)c1O | PDX3 (Saccharomyces cerevisiae, UniProt P38075, E122V/K222Q/L206S) | PNP oxidase activity, inhibitor | – | added: 4 mM PNP substrate, 0.4 mM FMN | 2700 µM
OC1CCN(c2ccc(/C=N/NC(=S)Nc3cccc(Cl)c3Cl)cc2)CC1 | CA1 | enzyme activity, inhibitor | – | – | 0.309 µM
O=S1(=O)O[C@@H]2[C@H](O)[C@@H](O)[C@H](O)[C@@H](CO)[C@@H]2O1 | Oligosaccharide 4-alpha-D-glucosyltransferase (agd31B, Cellvibrio japonicus, UniProt B3PEE6) | enzyme activity, inhibitor | – | 30 min preincubation, pH 6.5, 25 °C | 0.49 ± 0.02 µM
CC1(F)CN(C(=O)Cn2c(=O)c(C(=O)NCc3ccc(Cl)cc3)cc3nc(N4CCNC4=O)cnc32)C1 | KCNH2 | ion current, automated patch clamp | – | – | 38.2 µM
COc1c(Cl)cccc1Nc1c(-c2ccncc2OC[C@@H]2COCCO2)[nH]c2c1C(=O)NCC2 | YES1 (Homo sapiens, UniProt P07947) | kinase activity, inhibitor, TR-FRET | – | median value, added: ATP 2 mM | 5.88 µM
O=c1nc(SCc2ccc(C(F)(F)F)cc2)nc(SCc2csc3ccc(Cl)cc23)[nH]1 | TOP2A | decatenation, inhibitor | – | – | 6.6 µM
OC1CCN(c2ccc(/C=N/NC(=S)Nc3ccc(F)cc3)cc2)CC1 | CA1 | enzyme activity, inhibitor | – | – | 0.395 µM
COc1cc2c(cc1OC)C1CC(=O)C(CC(C)C)CN1CC2 (centres unmarked) | SLC18A2 (Homo sapiens, UniProt Q05940, Y433F) | transporter uptake, fluorescence imaging | – | mutant Y433F, added: 5 µM FFN206 | 0.0261 µM
CC[C@@H]1[C@H](F)C(=O)N[C@@H]1COc1nccc2cc(C(N)=O)c(OC)cc12 | GAK (Homo sapiens, UniProt O14976) | ATP-site probe binding, ActivX profiling | THP-1 cell lysate | Lys2 site | 2.9 µM
Cc1c(C(=O)O)ccc2c3n(nc12)[C@@H]1[C@H](C3)N(CC2CC2)[C@@]2(C(=O)Nc3cc(Cl)ccc32)[C@H]1c1cccc(Cl)c1F | Protein Mdm4, with p53 (MDM4, Homo sapiens, UniProt O15151, C17S) | MDMX-p53 binding, inhibitor, AlphaScreen | – | – | 7.94 µM
COc1ccc2c(c1)c1c(C)c3c[n+](C)ccc3c(C)c1n2C | Toll-like receptor 3 | reporter gene, inhibitor | HEK-Blue hTLR3 | added: poly(I:C) | 1.92 ± 0.07 µM
OC1CCN(c2ccc(/C=N/NC(=S)NCCc3ccccc3)cc2)CC1 | CA1 | enzyme activity, inhibitor | – | – | 0.706 µM
Cc1ccc(S(=O)(=O)n2cc(/C=N/NC(=S)Nc3ccc(Cl)cc3)c3ccccc32)cc1 | mushroom tyrosinase | enzyme activity, inhibitor | – | added: L-DOPA substrate | 8.31 ± 0.2 µM
CCn1c(-c2nc3ccc(C(=O)N4CCCC(N)C4)cc3n2C)cc2ccccc21 (centres unmarked) | CHRNA1 (Homo sapiens, UniProt P02708) | intracellular calcium, antagonist, fluorescence | – | – | 1 µM
COc1cc(C(=O)NS(=O)(=O)c2ccccc2C)ccc1Cc1cn(C)c2ccc(NC(=O)OC3CCCC3)cc12 | LRRC8A/LRRC8C (Homo sapiens, UniProt Q8IWT6+Q8TDW0, Y124F/Y126F) | ion current, inhibitor, whole-cell patch clamp | HCT116 LRRC8-/- transfected | at -100 mV | 18.5 µM
CN1CCN(c2ccc(Nc3ncc4cc(C#N)c(=O)n(C5CCCC5)c4n3)cc2)CC1 | Cyclin-dependent kinase 4, with cyclin D3 (CDK4, Homo sapiens, UniProt P11802) | – | – | – | 0.0341 µM
Cc1ncc(C(=O)N[C@@H](CC2CCCCC2)C(=O)N[C@@H](CC2CCCCC2)C(=O)N[C@H](/C=C/S(C)(=O)=O)Cc2ccc(CN)cc2)s1 | PSMB6 | competitive ABPP | Raji cell lysate | – | > 10 µM
COc1ccc2c3c([nH]c2c1)[C@H](CC(C)C)N1C(=O)[C@H](CC(=O)N2CCCCC2)NC(=O)[C@@H]1C3 | ABCG2 | inhibitor, item: protoporphyrin IX | A549 | 2 h, added: 1 mM ALA | 4.07 µM and 3.84 µM and 1.51 µM
COc1cc(CNC(=O)c2cccc(CNC3=NCCN3)c2F)cc(OC)c1 | WD repeat-containing protein 5, MLL1 complex (WDR5, Homo sapiens, UniProt P61964) | – | – | – | > 3 µM
[Fe+2].c1ccc(CN(CCN(Cc2ccccn2)Cc2ccccn2)Cc2ccccn2)cc1 | Proteasome subunit beta type-6, caspase-like site (PSMB6, Homo sapiens, UniProt P28072) | caspase-like activity, inhibitor, purified 20S proteasome | – | pH 7.4, added: 20 µM Z-LLE-AMC | > 1000 µM
CC(C)C[C@@H](N)[C@H](O)C(=O)N[C@H](C(=O)N[C@H](C(=O)N[C@@H](CC(=O)O)C(=O)O)C(C)C)C(C)C | rat neuron-specific aminopeptidase | enzyme activity, inhibitor | – | – | 0.05 µM
Nc1nc2c(ncn2[C@@H]2O[C@H](COP(=O)(O)OP(=O)(O)OP(=O)(O)O)[C@@H](O)[C@H]2O)c(=O)[nH]1 | dGTP triphosphohydrolase (Leeuwenhoekiella blandensis, UniProt A3XHN1) | dGTPase activity, inhibitor, enzyme-coupled | – | added: 1 mM dGTP | ~2300 µM
Cc1nc(F)ccc1-c1cc(Cn2ccn(C)c2=N)cc(C(=O)NCc2ccc(Cl)c(Cl)c2)c1 | WD repeat-containing protein 5, SETD1B complex (WDR5, Homo sapiens, UniProt P61964) | SETD1B methyltransferase activity, inhibitor | – | added: core histones substrate | > 20 µM
Cc1ncc(C(=O)N[C@@H](CC2CCC3CCCCC3C2)C(=O)N[C@@H](CC(C)C)C(=O)N[C@H](/C=C/S(C)(=O)=O)Cc2ccc(CN)cc2)s1 (some centres unmarked) | PSMB6 | competitive ABPP | Raji cell lysate | – | > 10 µM

Structure (SMILES) | target | assay | test system | conditions | IC50
CC(=O)Nc1ncc([N+](=O)[O-])s1 | GSK3A (Homo sapiens, UniProt P49840) | kinase activity, inhibitor, Z'-LYTE | – | – | 5.19 µM
COc1ccc(C[C@H](NC(=O)[C@H](C)NC(=O)CN2CCOCC2)C(=O)N[C@@H](CC2CCC(F)(F)CC2)C(=O)[C@@]2(C)CO2)cc1 | PSMB6 | competitive ABPP | Raji cell lysate | – | > 10 µM
O=C(O)CCN1C(=O)CSC1=S | mushroom tyrosinase | enzyme activity, inhibitor | – | 25 °C, added: L-DOPA 1 mM | 735 µM
COc1cc(/C=N/n2c(C)nc3ccc(Br)cc3c2=O)ccc1OCc1ccc(Cl)cc1 | PLA2G5 | enzyme activity, inhibitor, colorimetric | – | – | 49.7 ± 0.71 µM
CC1(C)CN(C(=O)Cn2c(=O)c(C(=O)NCc3ccc(Cl)cc3)cc3nccnc32)C1 | KCNH2 | ion current, automated patch clamp | CHO expressing hERG | – | 4.9 µM
Cc1nn(C)c2ncc(C(=O)NCC3CC(Br)=NO3)c(Cl)c12 (centres unmarked) | MDH2 (Sus scrofa, UniProt P00346) | enzyme activity, reporter counter-screen | – | native enzyme | > 63 µM
Cc1ncc(C(=O)N[C@@H](CC(C)C)C(=O)N[C@@H](CC2CCC(C3CCCCC3)CC2)C(=O)N[C@H](/C=C/S(C)(=O)=O)Cc2ccc(CN)cc2)s1 (some centres unmarked) | PSMB6 | competitive ABPP | Raji cell lysate | – | > 10 µM
CC(=O)N1C[C@@H](CCN2CCC(c3c[nH]c4cc(Cl)ccc34)CC2)c2ccccc21 | SLC6A4 (Homo sapiens, UniProt P31645) | inhibitor | – | – | 1.1 µM
OC1(c2ccc(Cl)cc2)CCN(Cc2c[nH]c3ccccc23)CC1 | CatSper channel complex (Homo sapiens, UniProt Q7RTX7+Q86XQ3+Q8NEC5+Q96P56) | calcium influx, inhibitor, FLIPR | human sperm | added: high pH, high potassium | 12 µM
Cc1ncc(C(=O)N[C@@H](CC(C)C)C(=O)N[C@@H](CC2CCC(C)CC2)C(=O)N[C@H](/C=C/S(C)(=O)=O)Cc2ccc(CN)cc2)s1 (some centres unmarked) | PSMB6 | competitive ABPP | Raji cell lysate | – | > 10 µM
Cc1c2ccncc2c(C)c2c1[nH]c1ccc(F)cc12 | Toll-like receptor 3 | reporter gene, inhibitor | HEK-Blue hTLR3 | added: poly(I:C) | 1.01 ± 0.15 µM
COc1cc(NCC(=O)Nn2c(C)nc3ccc(Cl)cc3c2=O)cc(OC)c1OC | PLA2G5 | enzyme activity, inhibitor, colorimetric | – | – | 113 ± 1.41 µM
CC#CC(=O)N1CC[C@@H](n2c(=O)n(-c3ccc(Oc4ccccc4)cc3)c3c(N)ncnc32)C1 | CSK (Homo sapiens, UniProt P41240) | – | – | – | 0.975 µM
N#Cc1ccc(COc2cccc(C3CCN(Cc4nc5ccc(C(=O)O)cc5n4C[C@@H]4CCO4)CC3)n2)c(F)c1 | PDE10A | enzyme activity | – | – | 0.22 µM
COc1ccc(C[C@H](NC(=O)[C@H](C)NC(=O)CN2CCOCC2)C(=O)N[C@@H](CC2CCC(C)CC2)C(=O)[C@@]2(C)CO2)cc1 (some centres unmarked) | PSMB6 | competitive ABPP | Raji cell lysate | – | > 10 µM
CC(C)(C)NC(=O)CC[C@H](NC(=O)C(=O)c1c[nH]c2ccccc12)C(=O)NCc1cccc(B(O)O)c1 | PSMB6 | inhibitor | – | – | > 33.3 µM
CC(C)C[C@H](NC(=O)[C@H](CC(C)C)NC(=O)[C@H](Cc1ccccc1)NC(=O)CN=[N+]=[N-])C(=O)N[C@H](/C=C/S(C)(=O)=O)Cc1ccc(CN)cc1 | PSMB6 | competitive ABPP | Raji cell lysate | – | > 10 µM
Cc1nn2c(-c3c(C)nn(C)c3-c3ccc(C(F)(F)F)cc3)nc(CO)c2c(=O)[nH]1 | PDE10A | enzyme activity, inhibitor, scintillation proximity | – | – | 20.4 µM
COc1ccc2c(Cc3ccccc3F)c3n(c(=O)c2c1OC)CCc1cc2c(cc1-3)OCO2 | KCNH2 | – | – | 1 h, pH 7.4 | > 10 µM
Cc1ccc(S(=O)(=O)n2cc(/C=N/NC(=S)NCc3ccc(Cl)cc3)c3ccccc32)cc1 | mushroom tyrosinase | enzyme activity, inhibitor | – | added: L-DOPA substrate | 13.7 ± 0.3 µM
O=c1nc(SCc2cc(F)cc(C(F)(F)F)c2)nc(SCc2ccc3sccc3c2)[nH]1 | TOP2A | ATPase activity, ATP-competitive inhibitor | – | added: ATP 0.1 mM | 13.1 µM
Cc1ccc(NC(=S)N/N=C/c2cn(S(=O)(=O)c3ccc(C)cc3)c3ccccc23)cc1 | mushroom tyrosinase | enzyme activity, inhibitor | – | added: L-DOPA substrate | 14.3 ± 0.3 µM
Cc1cc2c(F)c(Oc3ncnn4cc(OC[C@@H](C)O)c(C)c34)ccc2[nH]1 | ABCG2 | inhibitor | – | 1 h | 9.61 µM

Excerpt of the above:
Structure (SMILES) | target | assay | test system | conditions | IC50
CC[C@@H]1[C@H](F)C(=O)N[C@@H]1COc1nccc2cc(C(N)=O)c(OC)cc12 | GAK (Homo sapiens, UniProt O14976) | ATP-site probe binding, ActivX profiling | THP-1 cell lysate | Lys2 site | 2.9 µM
Cc1c(C(=O)O)ccc2c3n(nc12)[C@@H]1[C@H](C3)N(CC2CC2)[C@@]2(C(=O)Nc3cc(Cl)ccc32)[C@H]1c1cccc(Cl)c1F | Protein Mdm4, with p53 (MDM4, Homo sapiens, UniProt O15151, C17S) | MDMX-p53 binding, inhibitor, AlphaScreen | – | – | 7.94 µM
COc1ccc2c(c1)c1c(C)c3c[n+](C)ccc3c(C)c1n2C | Toll-like receptor 3 | reporter gene, inhibitor | HEK-Blue hTLR3 | added: poly(I:C) | 1.92 ± 0.07 µM
OC1CCN(c2ccc(/C=N/NC(=S)NCCc3ccccc3)cc2)CC1 | CA1 | enzyme activity, inhibitor | – | – | 0.706 µM
Cc1ccc(S(=O)(=O)n2cc(/C=N/NC(=S)Nc3ccc(Cl)cc3)c3ccccc32)cc1 | mushroom tyrosinase | enzyme activity, inhibitor | – | added: L-DOPA substrate | 8.31 ± 0.2 µM
CCn1c(-c2nc3ccc(C(=O)N4CCCC(N)C4)cc3n2C)cc2ccccc21 (centres unmarked) | CHRNA1 (Homo sapiens, UniProt P02708) | intracellular calcium, antagonist, fluorescence | – | – | 1 µM
